Results gathered from unrelated publications.
Protocols differ between the studies behind these lines.
Organism: Staphylococcus aureus

CCC1(C)CCN(Cc2cc(N(C)C)c3c(c2O)C(=O)C2=C(O)[C@]4(O)C(=O)C(C(N)=O)=C(O)[C@@H](N(C)C)[C@@H]4C[C@@H]2C3)CC1  MIC (RN4250, Tet K efflux): 1 µg/mL
CCCCc1ccc(N2C(=O)/C(=N\NC(=N)N)c3cc(C)ccc32)cc1  MIC (microbial growth, broth dilution; 18 h): 3 µg/mL
C=C(NC(=O)C(=C)NC(=O)c1csc(C2=NC3c4csc(n4)C4NC(=O)c5csc(n5)C(C(C)(O)C(C)O)NC(=O)C5CSC(=N5)C(=CC)NC(=O)C(C(C)O)NC(=O)c5csc(n5)C3(CC2)NC(=O)C(C)NC(=O)C(=C)NC(=O)C(Cc2ccccc2)NC(=O)C(C(C)CC)NC2C=Cc3c(C(C)O)cc(nc3C2O)C(=O)OC4C)n1)C(N)=O (stereo not shown)  MIC (broth microdilution; ATCC 10537 MRSA; 18 h, 37 °C): 0.022 µg/mL
CN(C)c1cc(CNC(=O)C(C)(C)C)c(O)c2c1C[C@H]1C[C@H]3[C@H](N(C)C)C(O)=C(C(N)=O)C(=O)[C@@]3(O)C(O)=C1C2=O  MIC (RN4250, Tet K efflux): 2 µg/mL
C[n+]1ccc(/C=C2\Sc3ccccc3N2CCCN2CCCC2)c2ccccc21  MIC (microbial growth, broth dilution; ATCCBAA41 MRSA): 4 µg/mL
COCO[C@H]1[C@H](O)[C@@H](N)[C@@H](O[C@H]2[C@H](O[C@@H]3O[C@H](CO)[C@@H](O[C@H]4O[C@@H](CN)[C@@H](O)[C@H](O)[C@H]4N)[C@H]3O)[C@@H](O)[C@H](N)C[C@@H]2N)O[C@@H]1CO  MIC (broth microdilution; MRSA isolate AG 042): 32 µg/mL
CCc1ccccc1NC(=O)CSc1nc2ccccc2c(=O)n1-c1ccc(S(N)(=O)=O)cc1  MIC (methicillin-resistant; 24 h, 37 °C): 15.6 µg/mL
O=C(O)c1ccc(-n2cc(/C=N/Nc3ccc([N+](=O)[O-])cc3)c(-c3cccc(F)c3)n2)cc1  MIC (microbial growth; ATCC25923): 3.12 µg/mL
CC(C)CCOC1C(C)C2C(C=CC3C(C)C=CC=CC(C)OC(=O)C(C)C(=O)C(Cl)(Cl)C(=O)C32)CC1(C)O (stereo not shown)  MIC (microbial growth, broth dilution; NEWMAN): 1.6 µg/mL
CC(C)CCCCCCc1nc2ccccc2c(=O)n1N  MIC (broth microdilution; RN6390B): > 100 µM
O=[N+]([O-])c1ccc(CSc2nnc(C34CC5CC(CC(C5)C3)C4)n2-c2ccccc2)cc1  MIC (two-fold dilution; IFO 3060; 24 h, 36 °C): 4 µg/mL
COc1ccc(-c2csc(N/N=C(\C)c3ccc4c(c3)sc3nc(=O)c(C#N)cn34)n2)cc1  MIC (broth microdilution): < 40 µg/mL
Oc1c(Cl)cc(Cl)c2cccnc12  MIC (microbial growth, agar dilution; ATCC25923): 37.4 µM
CNC(CC(C)C)C(=O)NC1C(=O)NC(CC(N)=O)C(=O)NC2C(=O)NC3C(=O)NC(C(=O)NC(C(=O)O)c4cc(O)cc(O)c4-c4cc3ccc4O)C(O)c3ccc(c(Cl)c3)Oc3cc2cc(c3OC2OC(CO)C(O)C(O)C2OC2CC(C)(NC(=O)CCCC[N+](C)(C)Cc3ccccc3)C(O)C(C)O2)Oc2ccc(cc2Cl)C1O (stereo not shown)  MIC (agar dilution; MRSA clinical isolate MRSA4): 64 µg/mL
COC(Cn1ccn(C)[c]1=[Ag][O]C(C)=O)c1ccccc1 (stereo not shown)  MIC (broth dilution; ATCC 23235; 18 h, 37 °C): 5 µg/mL
C=CCNCc1cc(N(C)C)c2c(c1O)C(=O)C1=C(O)[C@]3(O)C(=O)C(C(N)=O)=C(O)[C@@H](N(C)C)[C@@H]3C[C@@H]1C2  MIC (RN4250, Tet K efflux): 2 µg/mL
CC1COC(=O)N1/N=C/c1ccc([N+](=O)[O-])o1 (stereo not shown)  MIC (microbial growth, broth dilution; ATCC29213; 18 h): 25 µg/mL
CN(C)c1cc(CNC2CCCCC2)c(O)c2c1C[C@H]1C[C@H]3[C@H](N(C)C)C(O)=C(C(N)=O)C(=O)[C@@]3(O)C(O)=C1C2=O  MIC (RN4250, Tet K efflux): 1 µg/mL
C[Si](C)(C)Cc1ccc(C2COC(=O)N2/N=C/c2ccc([N+](=O)[O-])o2)cc1 (stereo not shown)  MIC (microbial growth, broth dilution; ATCC29213; 18 h): > 50 µg/mL
O=C1c2ccccc2C(=O)c2c1ccc1c2C(C(=O)Nc2ccc(Cl)cc2)C(=O)C1c1ccccc1 (stereo not shown)  MIC (microbial growth): 64 µg/mL
Oc1c(Br)cc(Br)c2nc3cc(SC(F)(F)F)ccc3nc12  MIC (broth microdilution; MRSA 44): 0.05 µM
CC(C)C[C@H](NC(=O)[C@H](CC(N)=O)NC(=O)[C@H](CCCNC(=N)N)NC(=O)[C@@H](CC(C)C)NC(=O)[C@H](Cc1ccc2ccccc2c1)NC(=O)[C@H](CC(=O)O)NC(=O)[C@H](CCCCN)NC(=O)[C@@H](CC(C)C)NC(=O)[C@H](CCCNC(=N)N)NC(=O)[C@H](CCC(N)=O)NC(=O)[C@@H](NC(=O)[C@@H](CC(C)C)NC(=O)[C@H](CCCNC(=N)N)NC(=O)[C@H](CCCCN)NC(=O)[C@H](Cc1ccc(C(F)(F)F)cc1)NC(=O)CN)C(C)C)C(=O)N[C@H](C(N)=O)C(C)C  MIC (broth microdilution; USA300 LAC, MRSA): 6.2 µM
CCCCCCSCC1OC(OC2C(N)CC(N)C(OC3OC(CN)C(O)CC3N)C2O)C(O)C(N)C1O (stereo not shown)  MIC (methicillin-resistant): > 150 µg/mL
CC1OCC2OC(OC3C(N)CC(N)C(O)C3OC3OC(CO)C(OC4OC(CN)C(O)C(O)C4N)C3O)C(N)C(O)C2O1 (stereo not shown)  MIC (broth microdilution; MRSA isolate AG 039): 64 to 128 µg/mL
CCN(CC)CCCN1/C(=C/c2cc[n+](C)c3ccccc23)Sc2ccccc21  MIC (microbial growth, broth dilution; ATCC43300 MRSA): 8 µg/mL
Oc1ccccc1-c1ccc[nH]1  MIC (microbial growth, broth dilution; NCTC8325; 20 h): 32 µg/mL
CCCCCCCCCc1nc2cc(Cl)ccc2c(=O)n1CCN  MIC (RN6390B): 4.4 µg/mL
CN(C)c1cc(CNc2ccccc2)c(O)c2c1C[C@H]1C[C@H]3[C@H](N(C)C)C(O)=C(C(N)=O)C(=O)[C@@]3(O)C(O)=C1C2=O  MIC (RN4250, Tet K efflux): 2 µg/mL
CCS(=O)(=O)[C@H]1[C@H](O)[C@@H](N)[C@@H](O[C@H]2[C@H](O[C@@H]3O[C@H](CO)[C@@H](O[C@H]4O[C@@H](CN)[C@@H](O)[C@H](O)[C@H]4N)[C@H]3O)[C@@H](O)[C@H](N)C[C@@H]2N)O[C@@H]1CO  MIC (methicillin-resistant): > 64 µg/mL
CC(=O)NCc1cc(N(C)C)c2c(c1O)C(=O)C1=C(O)[C@]3(O)C(=O)C(C(N)=O)=C(O)[C@@H](N(C)C)[C@@H]3C[C@@H]1C2  MIC (RN4250, Tet K efflux): > 64 µg/mL
NC[C@@H]1O[C@H](O[C@H]2[C@@H](O)[C@H](O[C@@H]3[C@@H](O)[C@H](N)C[C@H](N)[C@H]3O[C@H]3O[C@H](CO)[C@@H](OCCO)[C@H](O)[C@H]3N)O[C@@H]2CO)[C@H](N)[C@@H](O)[C@@H]1O  MIC (broth microdilution; MRSA isolate AG 042): 16 to 32 µg/mL
O=[N+]([O-])c1ccc2c(c1)C=[N+]1N3C(=[O+][Cu-2]1([Cl])[O]2)c1ccccc1NC3c1cc([N+](=O)[O-])ccc1O (stereo not shown)  MIC (broth microdilution; ATCC 29213; 24 h, 37 °C): 16 µg/mL
CNC(CC(C)C)C(=O)NC1C(=O)NC(CC(N)=O)C(=O)NC2C(=O)NC3C(=O)NC(C(=O)NC(C(=O)O)c4cc(O)cc(O)c4-c4cc3ccc4O)C(O)c3ccc(c(Cl)c3)Oc3cc2cc(c3OC2OC(CO)C(O)C(O)C2OC2CC(C)(NC(=O)CCCCCCCCC[N+](C)(C)Cc3ccccc3)C(O)C(C)O2)Oc2ccc(cc2Cl)C1O (stereo not shown)  MIC (agar dilution; MRSA clinical isolate MRSA3): 32 µg/mL
COc1cccc(OC)c1C(=O)N[C@@H]1C(=O)N2[C@@H]1SC(C)(C)[C@@H]2C(=O)O  MIC (microbial growth, broth dilution; NEWMAN): 2 µg/mL
O=C(CCc1cc(O)c(O)c(O)c1)NCCCCCCCCCC[P+](c1ccccc1)(c1ccccc1)c1ccccc1  MIC (broth microdilution; XU212 MRSA TetK; 24 h): 16 µg/mL
CNC(CC(C)C)C(=O)NC1C(=O)NC(CC(N)=O)C(=O)NC2C(=O)NC3C(=O)NC(C(=O)NC(C(=O)O)c4cc(O)cc(O)c4-c4cc3ccc4O)C(O)c3ccc(c(Cl)c3)Oc3cc2cc(c3OC2OC(CO)C(O)C(O)C2OC2CC(C)(NC(=O)CCCCCC[N+](C)(C)Cc3ccccc3)C(O)C(C)O2)Oc2ccc(cc2Cl)C1O (stereo not shown)  MIC (agar dilution; MRSA clinical isolate MRSA4): 256 µg/mL
COc1ccc2c(c1CC=C(C)C)O[C@H]1c3cc4c(cc3OC[C@@]21O)OC(C)(C)C=C4  MIC (ATCC 25923): 128 µg/mL
CC(C)CNCc1cc(N(C)C)c2c(c1O)C(=O)C1=C(O)[C@]3(O)C(=O)C(C(N)=O)=C(O)[C@@H](N(C)C)[C@@H]3C[C@@H]1C2  MIC (RN4250, Tet K efflux): 1 µg/mL
CC1C=CC=CC(C)C2C=CC3CC(C)(O)C(OCc4ccccc4)C(C)C3C2C(=O)C(Cl)(Cl)C(=O)C(C)C(=O)O1 (stereo not shown)  MIC (microbial growth, broth dilution; NEWMAN): 0.4 µg/mL
CN(C)c1cc(CNC2CCCC2)c(O)c2c1C[C@H]1C[C@H]3[C@H](N(C)C)C(O)=C(C(N)=O)C(=O)[C@@]3(O)C(O)=C1C2=O  MIC (microbial growth, broth dilution): 0.5 µg/mL
C[C@H](NC(=O)[C@H](Cc1c[nH]c2ccccc12)NC(=O)[C@@H](N)CCCNC(=N)N)C(=O)N[C@@H](Cc1c[nH]c2ccccc12)C(=O)N[C@@H](CCCNC(=N)N)C(=O)N[C@@H](Cc1c[nH]c2ccccc12)C(=O)N[C@@H](CCC(N)=O)C(=O)N[C@@H](Cc1c[nH]c2ccccc12)C(=O)N[C@@H](CCCNC(=N)N)C(N)=O  MIC (broth microdilution; ATCC 25923; 24 h, 37 °C): 140 µM
Oc1c(Br)cc(Br)c2nc3cc(Cc4ccccc4)ccc3nc12  MIC (broth microdilution; MRSA 1707; 16 h, 37 °C): 0.3 µM
CCc1nc(N)nc(N)c1C#CC(C)c1cc(-c2cc(C)nc(C)c2)ccc1OC(F)(F)F (racemic)  MIC (broth microdilution; ATCC 43300; 18 h, 37 °C): 0.625 µg/mL

Excerpt of the above:
COCO[C@H]1[C@H](O)[C@@H](N)[C@@H](O[C@H]2[C@H](O[C@@H]3O[C@H](CO)[C@@H](O[C@H]4O[C@@H](CN)[C@@H](O)[C@H](O)[C@H]4N)[C@H]3O)[C@@H](O)[C@H](N)C[C@@H]2N)O[C@@H]1CO  MIC (broth microdilution; MRSA isolate AG 042): 32 µg/mL
CCc1ccccc1NC(=O)CSc1nc2ccccc2c(=O)n1-c1ccc(S(N)(=O)=O)cc1  MIC (methicillin-resistant; 24 h, 37 °C): 15.6 µg/mL
O=C(O)c1ccc(-n2cc(/C=N/Nc3ccc([N+](=O)[O-])cc3)c(-c3cccc(F)c3)n2)cc1  MIC (microbial growth; ATCC25923): 3.12 µg/mL
CC(C)CCOC1C(C)C2C(C=CC3C(C)C=CC=CC(C)OC(=O)C(C)C(=O)C(Cl)(Cl)C(=O)C32)CC1(C)O (stereo not shown)  MIC (microbial growth, broth dilution; NEWMAN): 1.6 µg/mL
CC(C)CCCCCCc1nc2ccccc2c(=O)n1N  MIC (broth microdilution; RN6390B): > 100 µM
O=[N+]([O-])c1ccc(CSc2nnc(C34CC5CC(CC(C5)C3)C4)n2-c2ccccc2)cc1  MIC (two-fold dilution; IFO 3060; 24 h, 36 °C): 4 µg/mL
COc1ccc(-c2csc(N/N=C(\C)c3ccc4c(c3)sc3nc(=O)c(C#N)cn34)n2)cc1  MIC (broth microdilution): < 40 µg/mL
